Measured values from different studies.
Every numbered part comes from another study and shows a few of its results, in no order.
Sequence of UniProt Q86UE8 (whole entry, looked up): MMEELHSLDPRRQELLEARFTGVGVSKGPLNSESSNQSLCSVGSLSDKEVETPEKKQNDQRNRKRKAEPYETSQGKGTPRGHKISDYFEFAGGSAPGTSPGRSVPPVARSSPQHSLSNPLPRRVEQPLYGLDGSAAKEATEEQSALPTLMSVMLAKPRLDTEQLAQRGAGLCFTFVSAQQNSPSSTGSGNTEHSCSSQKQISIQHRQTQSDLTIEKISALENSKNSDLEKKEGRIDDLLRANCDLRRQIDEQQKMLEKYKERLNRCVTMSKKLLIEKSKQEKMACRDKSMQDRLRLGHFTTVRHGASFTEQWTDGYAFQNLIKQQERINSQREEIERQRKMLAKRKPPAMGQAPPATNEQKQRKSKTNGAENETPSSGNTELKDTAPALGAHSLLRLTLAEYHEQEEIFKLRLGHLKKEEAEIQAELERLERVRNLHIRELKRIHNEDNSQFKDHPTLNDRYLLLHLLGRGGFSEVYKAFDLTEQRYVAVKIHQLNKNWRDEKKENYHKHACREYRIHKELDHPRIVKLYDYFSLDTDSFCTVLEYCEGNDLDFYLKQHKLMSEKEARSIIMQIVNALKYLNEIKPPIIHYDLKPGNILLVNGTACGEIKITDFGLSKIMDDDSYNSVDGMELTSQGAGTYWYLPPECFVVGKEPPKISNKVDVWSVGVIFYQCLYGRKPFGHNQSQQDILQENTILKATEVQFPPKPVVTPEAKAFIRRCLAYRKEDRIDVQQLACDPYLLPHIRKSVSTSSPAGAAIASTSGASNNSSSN
Sequence of UniProt Q6DT37 (whole entry, looked up): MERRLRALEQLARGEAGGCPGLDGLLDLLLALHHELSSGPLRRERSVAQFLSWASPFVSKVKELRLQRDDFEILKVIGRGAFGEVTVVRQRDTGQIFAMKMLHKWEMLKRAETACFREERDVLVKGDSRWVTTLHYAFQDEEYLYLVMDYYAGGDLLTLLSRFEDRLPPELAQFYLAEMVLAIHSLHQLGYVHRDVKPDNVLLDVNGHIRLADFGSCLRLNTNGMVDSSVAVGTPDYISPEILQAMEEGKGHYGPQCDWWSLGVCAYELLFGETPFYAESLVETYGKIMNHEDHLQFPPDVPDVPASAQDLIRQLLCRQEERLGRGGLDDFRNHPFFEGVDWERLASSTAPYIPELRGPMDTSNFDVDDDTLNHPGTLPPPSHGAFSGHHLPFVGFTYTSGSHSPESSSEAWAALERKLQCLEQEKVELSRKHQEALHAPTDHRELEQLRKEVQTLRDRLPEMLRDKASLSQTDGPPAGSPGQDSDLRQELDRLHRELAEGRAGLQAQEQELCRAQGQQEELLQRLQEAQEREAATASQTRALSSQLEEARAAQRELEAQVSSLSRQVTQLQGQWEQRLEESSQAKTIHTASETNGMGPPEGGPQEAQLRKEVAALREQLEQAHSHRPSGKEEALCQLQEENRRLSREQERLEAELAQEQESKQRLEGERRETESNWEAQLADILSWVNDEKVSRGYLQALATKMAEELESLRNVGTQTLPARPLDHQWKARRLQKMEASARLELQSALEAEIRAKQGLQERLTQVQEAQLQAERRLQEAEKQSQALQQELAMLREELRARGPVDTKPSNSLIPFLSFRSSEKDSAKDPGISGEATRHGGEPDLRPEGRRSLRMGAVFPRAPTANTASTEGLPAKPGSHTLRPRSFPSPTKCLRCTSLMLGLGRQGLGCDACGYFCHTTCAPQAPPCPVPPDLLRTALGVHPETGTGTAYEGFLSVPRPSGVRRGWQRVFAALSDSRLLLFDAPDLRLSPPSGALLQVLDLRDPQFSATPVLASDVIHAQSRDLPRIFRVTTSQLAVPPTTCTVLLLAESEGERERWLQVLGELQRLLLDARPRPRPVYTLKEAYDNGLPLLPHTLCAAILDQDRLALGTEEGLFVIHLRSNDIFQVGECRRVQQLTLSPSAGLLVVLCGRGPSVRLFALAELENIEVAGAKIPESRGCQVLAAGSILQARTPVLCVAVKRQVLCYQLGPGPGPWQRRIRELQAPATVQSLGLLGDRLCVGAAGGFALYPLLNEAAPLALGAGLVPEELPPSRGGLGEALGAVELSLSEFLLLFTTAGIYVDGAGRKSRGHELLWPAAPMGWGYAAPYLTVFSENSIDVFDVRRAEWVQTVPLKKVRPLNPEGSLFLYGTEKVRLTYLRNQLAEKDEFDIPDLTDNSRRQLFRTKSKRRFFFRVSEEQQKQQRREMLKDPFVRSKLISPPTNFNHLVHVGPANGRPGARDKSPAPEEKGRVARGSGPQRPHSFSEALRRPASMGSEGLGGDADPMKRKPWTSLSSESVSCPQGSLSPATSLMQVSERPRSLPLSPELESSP
Sequence of UniProt Q9NY57 (whole entry, looked up): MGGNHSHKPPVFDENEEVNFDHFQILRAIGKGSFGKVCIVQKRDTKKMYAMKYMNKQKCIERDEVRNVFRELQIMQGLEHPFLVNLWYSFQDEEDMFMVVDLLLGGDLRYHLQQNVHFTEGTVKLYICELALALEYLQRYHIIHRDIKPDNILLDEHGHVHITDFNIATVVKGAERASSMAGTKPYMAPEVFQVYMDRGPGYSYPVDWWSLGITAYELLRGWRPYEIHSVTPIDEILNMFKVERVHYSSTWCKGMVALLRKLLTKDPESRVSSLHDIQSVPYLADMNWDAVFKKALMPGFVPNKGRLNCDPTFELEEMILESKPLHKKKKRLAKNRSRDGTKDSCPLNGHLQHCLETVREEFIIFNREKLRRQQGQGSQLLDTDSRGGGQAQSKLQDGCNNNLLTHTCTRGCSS
Sequence of UniProt P10721 (whole entry, unmodified, looked up): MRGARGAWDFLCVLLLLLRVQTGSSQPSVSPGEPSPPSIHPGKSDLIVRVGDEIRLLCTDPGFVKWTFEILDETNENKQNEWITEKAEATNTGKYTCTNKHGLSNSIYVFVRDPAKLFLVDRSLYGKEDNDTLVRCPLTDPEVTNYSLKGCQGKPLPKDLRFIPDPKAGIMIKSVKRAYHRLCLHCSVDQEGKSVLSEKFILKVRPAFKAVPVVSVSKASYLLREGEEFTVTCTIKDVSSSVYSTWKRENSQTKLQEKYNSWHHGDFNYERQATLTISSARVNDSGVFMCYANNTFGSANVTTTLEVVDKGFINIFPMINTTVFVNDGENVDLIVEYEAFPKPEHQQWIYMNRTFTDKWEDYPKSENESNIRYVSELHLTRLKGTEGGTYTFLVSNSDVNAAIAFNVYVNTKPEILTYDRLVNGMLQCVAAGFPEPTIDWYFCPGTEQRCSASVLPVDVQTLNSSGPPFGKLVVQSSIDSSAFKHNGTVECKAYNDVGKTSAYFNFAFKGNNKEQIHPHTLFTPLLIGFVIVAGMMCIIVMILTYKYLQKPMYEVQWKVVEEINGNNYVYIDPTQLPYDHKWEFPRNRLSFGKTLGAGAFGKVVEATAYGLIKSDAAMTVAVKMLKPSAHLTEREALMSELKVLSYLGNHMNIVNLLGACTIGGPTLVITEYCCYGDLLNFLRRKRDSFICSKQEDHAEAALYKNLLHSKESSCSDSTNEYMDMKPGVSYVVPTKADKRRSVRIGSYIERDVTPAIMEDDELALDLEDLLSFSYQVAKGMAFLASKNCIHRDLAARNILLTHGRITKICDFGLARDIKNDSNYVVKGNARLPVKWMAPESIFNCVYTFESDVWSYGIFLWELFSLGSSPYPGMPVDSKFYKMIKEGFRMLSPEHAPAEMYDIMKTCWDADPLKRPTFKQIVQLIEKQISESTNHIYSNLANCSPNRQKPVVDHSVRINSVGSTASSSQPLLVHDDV
Sequence of UniProt Q96NX5 (whole entry, looked up): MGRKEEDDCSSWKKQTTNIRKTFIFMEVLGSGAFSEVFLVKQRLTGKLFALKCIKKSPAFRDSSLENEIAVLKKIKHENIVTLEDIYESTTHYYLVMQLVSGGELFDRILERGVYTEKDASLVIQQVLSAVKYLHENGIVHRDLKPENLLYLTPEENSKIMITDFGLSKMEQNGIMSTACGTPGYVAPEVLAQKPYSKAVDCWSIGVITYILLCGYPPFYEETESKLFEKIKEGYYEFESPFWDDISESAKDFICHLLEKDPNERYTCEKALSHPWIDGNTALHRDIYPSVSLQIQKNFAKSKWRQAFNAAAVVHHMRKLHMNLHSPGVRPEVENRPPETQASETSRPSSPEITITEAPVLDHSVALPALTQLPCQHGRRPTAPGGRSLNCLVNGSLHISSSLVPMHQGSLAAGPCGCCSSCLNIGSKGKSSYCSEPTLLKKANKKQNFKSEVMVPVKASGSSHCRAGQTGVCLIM

Sample 1
Structure (SMILES): COc1cc(C(=O)N2CCC(N3CCN(C)CC3)CC2)ccc1Nc1ncc2c(n1)N(C)c1ccccc1C(=O)N2C
Quantity: inhibition
tested on = FER (mouse); assay = probe labelling, KiNativ ADP probe; system = mouse brain lysate; setting = 0.1 µM, LYS1 labelled site; result = -6.6%
tested on = NDR2 (mouse); assay = probe labelling, KiNativ ATP probe; system = mouse brain lysate; setting = 1 µM, LYS1 labelled site; result = 8.2%
tested on = NDR1 (mouse); assay = probe labelling, KiNativ, measured: DTGHVYAMkILR peptide, LYS1 site; system = brain tissue lysate (mouse); setting = 1 µM, with: ATP acyl-phosphate probe; result = -0.9%
tested on = mouse CaMK1α; assay = probe labelling, KiNativ ATP probe; system = mouse brain lysate; setting = 0.1 µM, LYS1 site LVAIkCIAK; result = -7.7%
tested on = NEK6 and NEK7 human; assay = KiNativ profiling; system = human PBMC; setting = concentration not given, LYS2 site, with: ADP acyl phosphate probe; result = 19.8%
tested on = NIM1 (mouse); assay = probe labelling, KiNativ ATP probe; system = mouse brain lysate; setting = 0.1 µM, LYS1 labelled site; result = 9.9%
tested on = mouse JNK1/JNK2/JNK3; assay = probe labelling, KiNativ ATP probe; system = mouse brain lysate; setting = 0.1 µM, LYS2 site DLkPSNIVVK; result = 3.3%
tested on = human PBMC; assay = probe labeling, inhibitor, KiNativ profiling; system = cell lysate; setting = concentration not given, LYS1 site, with: ATP acyl-phosphate probe 0.1 µM; result = 8.5%

Sample 2
Target: Eukaryotic initiation factor 4A-I (EIF4A1, Homo sapiens, UniProt P60842)
Sequence of UniProt P60842 (whole entry, looked up): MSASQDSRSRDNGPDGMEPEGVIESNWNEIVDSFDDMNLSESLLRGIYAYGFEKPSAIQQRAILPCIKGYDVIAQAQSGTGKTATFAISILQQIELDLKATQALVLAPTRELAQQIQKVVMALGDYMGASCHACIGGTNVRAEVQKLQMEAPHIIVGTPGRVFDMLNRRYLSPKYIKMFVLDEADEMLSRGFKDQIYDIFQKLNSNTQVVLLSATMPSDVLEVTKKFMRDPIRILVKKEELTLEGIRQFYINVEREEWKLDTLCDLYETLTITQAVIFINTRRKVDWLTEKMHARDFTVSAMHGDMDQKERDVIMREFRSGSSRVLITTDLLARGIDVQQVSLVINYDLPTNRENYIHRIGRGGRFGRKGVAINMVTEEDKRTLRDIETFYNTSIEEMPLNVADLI
Observed: RNA clamping
Method: fluorescence polarization
Concentration: concentration not given
Notes: mean of two replicates
With: FAM-labelled poly r(AG)8 RNA
Quantity: fluorescence polarization change
SMILES = C#CCCC1(CCNC(=O)CCCn2c(-c3ccccc3)nc3c(c2=O)[C@@H](c2ccccc2)[C@]2(c4ccc(OC)cc4)Oc4cc(OC)cc(OC)c4[C@]32O)N=N1; result = 6.2 mP
SMILES = COC(=O)[C@@H]1[C@@H](c2ccccc2)[C@]2(c3ccc(OC)cc3)Oc3cc(OC)cc(OC)c3[C@@]23NC(N2CCOCC2)=N[C@@]13O; result = 72.1 mP
SMILES = COC(=O)[C@@H]1[C@@H](c2ccccc2)[C@]2(c3ccc(OC)cc3)Oc3cc(OC)cc(OC)c3[C@@]23NC(c2ccc(N(C)C)cc2)=N[C@@]13O; result = 44.6 mP
SMILES = COc1ccc([C@@]23Oc4cc(OC)cc(OC)c4[C@]2(O)[C@H](O)[C@H](C(=O)c2oc4ccccc4c2C)[C@H]3c2ccccc2)cc1; result = 2.3 mP
SMILES = COc1ccc([C@]23Oc4cc(OC)cc(OC)c4[C@](O)(C2O)[C@H](c2c(F)c(F)c(F)c(F)c2F)[C@H]3c2ccccc2)cc1 (some centres unmarked); result = 5.5 mP

Sample 3
Structure (SMILES): CN1CCN(c2cnc3c(C4CCN(C(=O)c5ccc(OC(F)(F)F)cc5N)CC4)ncnc3c2)CC1
Concentration: 1 µM
Quantity: remaining binding
target = NUAK family SNF1-like kinase 1 (NUAK1, Homo sapiens, UniProt O60285); observed = cell-free assay; method = competition with immobilised ligand; result = 100%
target = Tyrosine-protein kinase ZAP-70 (ZAP70, Homo sapiens, UniProt P43403); observed = cell-free assay; method = competition with immobilised ligand; result = 100%
target = Phosphatidylinositol 4,5-bisphosphate 3-kinase catalytic subunit alpha isoform (PIK3CA, Homo sapiens, UniProt P42336, I800L); observed = cell-free assay; method = competition with immobilised ligand; result = 100%
target = Serine/threonine-protein kinase tousled-like 2 (TLK2, Homo sapiens, UniProt Q86UE8); observed = cell-free assay; method = competition with immobilised ligand; result = 89%
target = Serine/threonine-protein kinase ULK1 (ULK1, Homo sapiens, UniProt O75385); observed = cell-free assay; method = competition with immobilised ligand; result = 100%
target = Tyrosine-protein kinase Fgr (FGR, Homo sapiens, UniProt P09769); observed = cell-free assay; method = competition with immobilised ligand; result = 100%
target = Serine/threonine-protein kinase 32B (STK32B, Homo sapiens, UniProt Q9NY57); observed = cell-free assay; method = competition with immobilised ligand; result = 87%
target = TGF-beta receptor type-1 (TGFBR1, Homo sapiens, UniProt P36897); observed = cell-free assay; method = competition with immobilised ligand; result = 90%
target = Leucine-rich repeat serine/threonine-protein kinase 2 (LRRK2, Homo sapiens, UniProt Q5S007); observed = cell-free assay; method = competition with immobilised ligand; result = 100%
target = Myosin light chain kinase (MYLK3, Homo sapiens, UniProt Q32MK0); observed = cell-free assay; method = competition with immobilised ligand; result = 82%
target = Mast/stem cell growth factor receptor Kit (KIT, Homo sapiens, UniProt P10721, V559D); observed = cell-free assay; method = competition with immobilised ligand; result = 99%
target = Muscle, skeletal receptor tyrosine-protein kinase (MUSK, Homo sapiens, UniProt O15146); observed = cell-free assay; method = competition with immobilised ligand; result = 100%
target = Calcium/calmodulin-dependent protein kinase type 1G (CAMK1G, Homo sapiens, UniProt Q96NX5); observed = cell-free assay; method = competition with immobilised ligand; result = 100%
target = Serine/threonine-protein kinase MRCK gamma (CDC42BPG, Homo sapiens, UniProt Q6DT37); method = competition binding; result = 100%
target = Serine/threonine-protein kinase BRSK2 (BRSK2, Homo sapiens, UniProt Q8IWQ3); observed = cell-free assay; method = competition with immobilised ligand; result = 100%

Sample 4
Target: Beta-1 adrenergic receptor (ADRB1, Homo sapiens, UniProt P08588)
Sequence of UniProt P08588 (whole entry, looked up): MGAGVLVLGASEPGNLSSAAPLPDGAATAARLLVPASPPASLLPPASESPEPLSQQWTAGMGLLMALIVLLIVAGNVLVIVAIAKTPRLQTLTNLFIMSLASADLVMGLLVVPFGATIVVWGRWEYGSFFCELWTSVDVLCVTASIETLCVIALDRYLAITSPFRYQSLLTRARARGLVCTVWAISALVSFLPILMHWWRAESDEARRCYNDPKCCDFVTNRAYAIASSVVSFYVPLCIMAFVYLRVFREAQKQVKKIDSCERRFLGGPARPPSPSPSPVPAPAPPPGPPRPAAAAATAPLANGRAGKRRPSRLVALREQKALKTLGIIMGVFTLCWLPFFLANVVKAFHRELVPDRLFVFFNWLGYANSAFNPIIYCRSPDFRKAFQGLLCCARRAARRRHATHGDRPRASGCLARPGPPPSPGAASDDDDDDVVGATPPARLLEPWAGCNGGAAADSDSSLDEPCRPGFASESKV
Mode: agonist
Quantity: EC50
SMILES = CN(C)c1cccc(-c2cc(N3CCOCC3=O)c3cncn3c2)c1; result = ≥ 100 µM
SMILES = O=C1c2cnc(-c3ccsc3)nc2OCCN1c1cccc(C(F)(F)F)c1; result = ≥ 100 µM
SMILES = Cn1c(COc2ccc(Cl)cc2)nnc1SCc1cc(=O)oc2cc(O)ccc12; result = ≥ 100 µM
SMILES = Cc1ccc(C(=O)N2CCN(c3cccc(Cl)c3)CC2)s1; result = ≥ 100 µM
SMILES = CC1(C)CC(=O)c2cc(C(=O)Nc3ccc(F)cc3)c(O)nc2C1; result = ≥ 100 µM
SMILES = O=c1cc(-c2ccccn2)oc2c(-c3cn[nH]c3)nccc12; result = ≥ 100 µM
SMILES = O=C(Nc1ccc([C@@H](O)[C@H]2COCC(=O)N2CCCc2ccccc2)cc1)c1ccco1; result = ≥ 100 µM

Some of these lines once more (sample 3):
target = TGF-beta receptor type-1 (TGFBR1, Homo sapiens, UniProt P36897); observed = cell-free assay; method = competition with immobilised ligand; result = 90%
target = Leucine-rich repeat serine/threonine-protein kinase 2 (LRRK2, Homo sapiens, UniProt Q5S007); observed = cell-free assay; method = competition with immobilised ligand; result = 100%
target = Myosin light chain kinase (MYLK3, Homo sapiens, UniProt Q32MK0); observed = cell-free assay; method = competition with immobilised ligand; result = 82%
